Published values gathered from unrelated publications.
Each line is one published result; not all experiments were run side by side. Several values in a cell are separate wells, animals, samples, runs or records. ± marks the error that the study gave.
USP14: Ubiquitin carboxyl-terminal hydrolase 14 (USP14, Homo sapiens, UniProt P54578)
PPO3: PPO3 (Agaricus bisporus, UniProt C7FF04)

SMILES	tested on	assay	test system	conditions	how to read	quantity	result
Cc1oc2c(c1C(=O)NCc1ccccc1)C(=O)c1ccccc1C2=O	USP14	enzyme activity, inhibitor		17 µM		inhibition	34%
Cn1c(=O)n(C2CCC(=O)NC2=O)c2ccc(C3CCN(CC(=O)Nc4cccc(CS(=O)(=O)N5CC[C@H](Nc6cccc(-c7sc(C(=O)O)c(OCC(=O)O)c7Cl)c6)CC5(C)C)c4)CC3)cc21 (stereo partly drawn)	Tyrosine-protein phosphatase non-receptor type 2 (Ptpn2, Mus musculus, UniProt Q06180)	degrader, Western blot	C57BL/6 mouse, splenocytes	intravenous, 100 mg/kg every 4 days, three doses, 2 h after final dose		remaining protein	3%
Nc1ccc(N2CCOCC2)c2nonc12	USP14	enzyme activity, inhibitor		17 µM		inhibition	93%
COc1cc(Nc2nccc(-c3cnn4nc(OC)ccc34)n2)cc(C(F)(F)F)c1	PIK3CA (Homo sapiens, UniProt P42336)	binding, competition with immobilised ligand		1 µM		remaining binding	78%
CNC1C[S+]2CC[S+]3CC[S+](C1)[Ru-4]321([N]=C=S)[n]2c3ccc(OC)cc3c3c4c(c5cc(F)c[n+]1c5c32)C(=O)NC4=O (stereo not drawn)	FLT3 ITD	KINOMEscan		0.1 µM	reference: control	remaining binding	35%
CCCC[C@H](NC(=O)[C@H](CCC(N)=O)NC(=O)[C@H](CCC(=O)O)NC(=O)[C@@H]1CCCN1C(=O)[C@@H](NC(=O)[C@H](C)NC(=O)[C@H](CC(N)=O)NC(=O)[C@H](CC(=O)O)NC(=O)CNC(=O)[C@@H]1CCCN1C(=O)[C@H](Cc1ccc(O)cc1)NC(=O)[C@@H](NC(=O)[C@@H]1CCCN1C(=O)[C@H](CCC(=O)O)NC(=O)[C@H](CC(C)C)NC(=O)[C@@H]1CCCN1C(=O)[C@H](C)N)C(C)C)[C@@H](C)O)C(=O)N[C@@H](C)C(=O)N[C@@H](CCC(N)=O)C(=O)N[C@@H](Cc1ccc(O)cc1)C(=O)N[C@@H](C)C(=O)N[C@@H](CCCCNC(=O)c1ccc2c(c1)C(=O)OC21c2ccc(N(C)C)cc2Oc2cc(N(C)C)ccc21)C(=O)N[C@@H](CC(=O)O)C(=O)N[C@@H](CC(C)C)C(=O)N[C@@H](CCCNC(=N)N)C(=O)N[C@@H](CCCNC(=N)N)C(=O)N[C@@H](Cc1ccc(O)cc1)C(=O)N[C@H](C(=O)N[C@@H](CC(N)=O)C(=O)N[C@@H](CCCC)C(=O)N[C@@H](CC(C)C)C(=O)N[C@H](C(=O)N[C@@H](CCCNC(=N)N)C(=O)N1CCC[C@H]1C(=O)N[C@@H](CCCNC(=N)N)C(=O)N[C@@H](Cc1ccc(O)cc1)C(N)=O)[C@@H](C)O)[C@@H](C)CC	NPY4R (Homo sapiens, UniProt P50391, F184A)	NanoBRET binding		Nluc-tagged receptor F184A, unit not given	net BRET ratio	BRETmax	0.044 ± 0.0016
CCN(CC)C(=O)c1ccc(O)c(OC)c1	Heat shock protein HSP 90-alpha, N-terminal domain (HSP90AA1, Homo sapiens, UniProt P07900)	binding, ligand-observed NMR titration		10.00 µM, ligand to protein ratio 56		bound ligand fraction	0.74
CCC[C@@H]1NC(=O)[C@H]([C@@H](C)O)NC(=O)[C@H](CCCNC(=N)N)NC(=O)CNC(=O)CC[C@@H](C(=O)N[C@@H](C)C(=O)N[C@@H](CCCNC(=N)N)C(=O)N[C@@H](CCCCN)C(=O)N[C@@H](CO)C(=O)N[C@H](C(=O)NCC(=O)NCC(N)=O)[C@@H](C)O)NC(=O)[C@H](CCC(N)=O)NC1=O	SETD7 (Homo sapiens, UniProt Q8WTS6)	histone H3 methylation, inhibitor, western blot		100 µM, 30 min, enzyme 500 nM, added: full-length H3, SAM 30 µM	reference: no inhibitor	H3K4me1 level	89 ± 2%
CCOC(=O)c1c2c(n(C)c1CN(C)C)C(=O)C(=NNC(N)=O)c1ccc(Br)cc1-2	USP14	enzyme activity, inhibitor		17 µM		inhibition	88%
O=C1c2sc(-c3ccc(N4CCC(F)C4)nc3F)nc2CCN1c1cccnc1 (stereo not drawn)	TAR DNA-binding protein 43, aggregated (TARDBP, Homo sapiens, UniProt Q13148)	autoradiography	human, non-demented control sections	10 nM	higher = more binding	specific binding	2.22 a.u. and 1.22 a.u. and 2.42 a.u. and 1.2 a.u.
O=C(NC[C@@H](Cc1ccc(F)cc1)N1CCC(O)(C(F)(F)F)CC1)C1(c2ccc(Cl)cc2)CCCC1	TRPA1 (Homo sapiens, UniProt O75762, I905A)	calcium influx, agonist			reference: I905A mutant over wild type	EC50 fold change	2.2
C[n+]1ccc(/C=N/NC(=O)c2ccc3ccc(C(=O)N/N=C/c4cc[n+](C)c5ccccc45)nc3n2)c2ccccc21	MYC parallel G4 DNA	FRET melting		1 µM, DNA 0.2 µM		ΔTm	16.2 ± 0.2 °C
CC(=O)NCCN(c1nc(NCc2n[nH]c3c2CCCC3)nc(N2CC3C(CCOc4cc(-c5scnc5C)ccc4CNC(=O)[C@@H]4C[C@@H](O)CN4C(=O)[C@@H](NC(=O)C4(F)CC4)C(C)(C)C)C3C2)n1)C(C)C (stereo partly drawn)	VHL/BRD9 (Homo sapiens, UniProt P40337+Q9H8M2)	BRD9 degradation, degrader, HiBiT	HEK293T BRD9-HiBiT	15 h		Dmax	59%
CC[C@@H](C)[C@@H](NC(=O)[C@@H](Cc1ccc(O)cc1)NC(=O)[C@H]1CCCN1C(=O)[C@@H](CCCNC(=N)N)NC(=O)[C@H](N)Cc1c[nH]cn1)C(=O)N[C@H](C)C(=O)N[C@H](Cc1c[nH]cn1)C(=O)N[C@H](CCCNC(=N)N)C(=O)N[C@@H](C(=O)N[C@H](Cc1ccc(O)cc1)C(=O)N[C@H](CO)C(=O)N[C@H](Cc1ccccc1)C(=O)NCC(=O)NCC(=O)NCC(=O)N[C@@H](CCCCNC(=O)CCCC[C@@H]1SC[C@@H]2NC(=O)N[C@@H]21)C(N)=O)C(C)C	Cd274 (Mus musculus, UniProt Q9EP73)	flow cytometry, item: Cd274		concentration not given, 24 h	reference: 0 h	relative surface expression	1 and 1.1 and 1.09
Brc1cccc(-c2cc(CN3c4ccccc4C=Cc4ccccc43)on2)c1	PPO3	enzyme activity, inhibitor		concentration not given		apparent Km	7.62 mM
CC(C)Oc1cc(Cl)ccc1CNc1cc(-c2ccccc2)nc2ncnn12	GPR3 (Homo sapiens, UniProt P46089, V155A)	cAMP level, cAMP GloSensor		100 pM	higher = more cAMP	cAMP luminescence	25200 a.u. and 25500 a.u. and 27900 a.u. and 35000 a.u.
CC1=CC(C)=[N+]2C1=C(CCCN1CCN(c3ccccc3)CC1)c1c(C)cc(C)n1[B-]2(F)F	SLC6A9 (Homo sapiens, UniProt P48067)	cell-free assay		1 µM		remaining signal	105%
N[C@H]1CC[C@H](Nc2nccc(-c3cccnc3Oc3ccc(NC(=O)NC4CC4)c4ccccc34)n2)CC1	CAD (Homo sapiens, UniProt P27708)	kinobead competition pulldown	HEK293/HCT116 lysate mixture	10 µM, 1 h, 4 °C	lower = stronger competition	log2 LFQ intensity	21.6 and 21.4 and 22 and 19.3
C[n+]1ccc(/C=N/NC(=O)c2cccc(C(=O)N/N=C/c3cc[n+](C)cc3)n2)cc1	hp2 hairpin duplex DNA	FRET melting		1 µM, added: ds26 10 µM		ΔTm	0 ± 0.4 °C
C#CCOC(=O)[C@]1(C)C=C(C(=O)Nc2cccc(C(=O)Nc3ccc(C)c(Nc4nccc(-c5cccnc5)n4)c3)c2)C(=O)CC1	MAPK9 (Homo sapiens, UniProt P45984)	enzyme activity, inhibitor		0.0007527 µM, unit not given	reference: vehicle	remaining activity	0.98
OC[C@H]1O[C@@H](Oc2cc3c(O)cc(O)cc3[o+]c2-c2cc(O)c(O)c(O)c2)[C@H](O)[C@@H](O)[C@H]1O	PPO3	fluorescence quenching		concentration not given, 318 K		number of binding sites	1.26
O=S(=O)(c1ccc(-c2ccc3ncnc(Nc4ccc(OCc5cccc(F)c5)c(Cl)c4)c3c2)cc1)N1CCCC1	Leishmania major	intracellular amastigote growth, luciferase	RAW264.7 macrophages			EC50	> 15 µM
CCCCCC=CC=C1C(=O)C=CC1CC=CCCCC(=O)O (stereo not drawn)	Myosin-9 (MYH9, Homo sapiens, UniProt P35579)	competitive isoTOP-ABPP	proteome, soluble, MDA-MB-231	100 µM, added: iodoacetamide probe	reference: DMSO over compound-treated, higher = stronger cysteine blockade	isoTOP-ABPP competition ratio	2.4
CC(=O)N[C@H]1[C@@H](OP(=O)(O)OP(=O)(O)OC[C@H]2O[C@@H](n3ccc(=O)[nH]c3=O)[C@H](O)[C@@H]2O)O[C@H](CO)[C@@H](O)[C@@H]1O	ABO (Homo sapiens, UniProt P16442, G268A/L266G)	binding				koff	22 s⁻¹
C=CC(=O)N1CCCC(n2c(=O)c3ncccc3n(Cc3ccc(Oc4ccccc4)cc3)c2=O)C1 (stereo not drawn)	PCNA (Homo sapiens, UniProt P12004)	thermal proteome profiling	cell proteome	unit not given	reference: vehicle	melting temperature shift	1.34
COC(=O)Cc1cc2c(cc1C(=O)c1ccccc1I)OCO2	Gria2/Glutamate receptor 3 (Rattus norvegicus, UniProt P19491+P19492)	glutamate-evoked current, whole-cell patch clamp	HEK-293T	concentration not given, weighted tau, 500 ms pulse, added: glutamate		desensitization time constant	2.5 ± 0.2 ms
COc1ccc(Nc2ncnc3ccc(-c4ccc(S(=O)(=O)N5CCN(C)CC5)cc4)cc23)cc1Cl	Leishmania major	intracellular amastigote growth, luciferase	RAW264.7 macrophages			EC50	> 15 µM
